{"data": "Assay results of several laboratories", "note": "Every numbered part comes from another study and shows a few of its results, in no order. Substitutions count along the parent as printed."}
{"data": "Block 1", "target": "Sal-like protein 4, full length isoform A (SALL4, Homo sapiens, UniProt Q9UJQ4, residues 1-1053)", "technique": "universal PBM", "molecule type": "double-stranded DNA, one strand shown", "medium": "in vitro", "tested at": "600 nM", "setting": "8-mer, flanks averaged, mean of replicates", "direction": "higher = stronger binding", "UniProt Q9UJQ4, sequence (whole entry, looked up)": "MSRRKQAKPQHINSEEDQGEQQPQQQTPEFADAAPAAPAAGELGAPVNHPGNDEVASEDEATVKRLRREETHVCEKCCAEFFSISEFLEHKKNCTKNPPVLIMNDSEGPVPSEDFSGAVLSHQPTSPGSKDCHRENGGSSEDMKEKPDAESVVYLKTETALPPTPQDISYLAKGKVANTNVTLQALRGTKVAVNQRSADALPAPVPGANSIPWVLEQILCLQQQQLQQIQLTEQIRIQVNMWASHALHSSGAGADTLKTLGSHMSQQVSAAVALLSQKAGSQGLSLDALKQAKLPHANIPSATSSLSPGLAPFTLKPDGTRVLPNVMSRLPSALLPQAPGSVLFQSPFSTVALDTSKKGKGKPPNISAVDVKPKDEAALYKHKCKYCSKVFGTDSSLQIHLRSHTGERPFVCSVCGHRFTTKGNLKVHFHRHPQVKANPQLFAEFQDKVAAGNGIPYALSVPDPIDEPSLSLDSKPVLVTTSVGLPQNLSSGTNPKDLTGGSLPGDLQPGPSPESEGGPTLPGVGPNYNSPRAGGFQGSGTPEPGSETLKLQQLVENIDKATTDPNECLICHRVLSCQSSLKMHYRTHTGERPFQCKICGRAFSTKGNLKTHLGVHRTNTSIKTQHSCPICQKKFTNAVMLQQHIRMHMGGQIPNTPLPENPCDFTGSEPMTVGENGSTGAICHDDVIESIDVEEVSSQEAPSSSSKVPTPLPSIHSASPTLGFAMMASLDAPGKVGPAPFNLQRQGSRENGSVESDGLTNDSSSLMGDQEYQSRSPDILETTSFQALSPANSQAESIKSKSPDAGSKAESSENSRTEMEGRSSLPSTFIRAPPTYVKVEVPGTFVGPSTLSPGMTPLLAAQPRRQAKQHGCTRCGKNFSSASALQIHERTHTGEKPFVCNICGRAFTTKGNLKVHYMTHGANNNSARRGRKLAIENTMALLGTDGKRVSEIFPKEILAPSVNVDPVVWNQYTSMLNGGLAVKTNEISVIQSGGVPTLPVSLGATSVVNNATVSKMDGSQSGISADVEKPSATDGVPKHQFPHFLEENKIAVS"}
{"Sequence": "TAAGTCTA", "E-score": 0.109}
{"Sequence": "GCTTTTAC", "E-score": 0.146}
{"Sequence": "CGGTTTCA", "E-score": -0.0416}
{"Sequence": "AATGGACC", "E-score": 0.0238}
{"Sequence": "CTCTGAAA", "E-score": 0.161}
{"Sequence": "AGATGGTA", "E-score": 0.0985}
{"Sequence": "GGGCAAAC", "E-score": -0.206}
{"Sequence": "ACGTACTC", "E-score": -0.0555}
{"data": "Block 2", "Substitution": "E128A", "target": "ABI1, truncated, D143A, DHFR fusion (Arabidopsis thaliana)", "technique": "DHFR PCA, deep sequencing", "medium": "yeast", "setting": "methotrexate growth selection, single substitutions", "reference": "wild-type fitted maximum", "direction": "higher = stronger binding", "starting sequence": "PYL1, truncated, DHFR fusion (Arabidopsis thaliana); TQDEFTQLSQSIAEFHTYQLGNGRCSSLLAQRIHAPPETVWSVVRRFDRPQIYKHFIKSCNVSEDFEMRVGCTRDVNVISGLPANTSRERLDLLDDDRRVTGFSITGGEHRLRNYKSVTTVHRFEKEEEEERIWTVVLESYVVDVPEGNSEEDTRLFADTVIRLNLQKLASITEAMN; partner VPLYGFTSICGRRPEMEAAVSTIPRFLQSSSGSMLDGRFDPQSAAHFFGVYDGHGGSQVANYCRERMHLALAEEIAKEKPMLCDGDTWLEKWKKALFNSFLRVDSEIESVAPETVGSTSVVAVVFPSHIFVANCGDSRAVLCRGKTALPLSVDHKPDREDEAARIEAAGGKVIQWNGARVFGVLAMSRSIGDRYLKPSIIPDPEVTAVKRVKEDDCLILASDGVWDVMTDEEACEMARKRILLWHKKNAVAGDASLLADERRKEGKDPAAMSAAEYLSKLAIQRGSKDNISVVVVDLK"}
{"setting": "with: (+)-ABA 4.8 µM", "relative binding score": "74%"}
{"setting": "with: (+)-ABA 0.032 µM", "relative binding score": "35.7%"}
{"setting": "with: (+)-ABA 1.4 µM", "relative binding score": "67.5%"}
{"setting": "with: (+)-ABA 0.0091 µM", "relative binding score": "41.2%"}
{"setting": "with: (+)-ABA 0.11 µM", "relative binding score": "36.3%"}
{"setting": "with: (+)-ABA 0 µM", "relative binding score": "27.4%"}
{"data": "Block 3", "target": "Krueppel-like factor 3, full length (KLF3, Homo sapiens, UniProt P57682, residues 1-345)", "technique": "protein-binding microarray", "molecule type": "hairpin DNA", "medium": "in vitro", "tested at": "not given", "setting": "whole hairpin DNA, median over replicate spots", "reference": "not given", "direction": "higher = stronger binding", "UniProt P57682, sequence (whole entry, looked up)": "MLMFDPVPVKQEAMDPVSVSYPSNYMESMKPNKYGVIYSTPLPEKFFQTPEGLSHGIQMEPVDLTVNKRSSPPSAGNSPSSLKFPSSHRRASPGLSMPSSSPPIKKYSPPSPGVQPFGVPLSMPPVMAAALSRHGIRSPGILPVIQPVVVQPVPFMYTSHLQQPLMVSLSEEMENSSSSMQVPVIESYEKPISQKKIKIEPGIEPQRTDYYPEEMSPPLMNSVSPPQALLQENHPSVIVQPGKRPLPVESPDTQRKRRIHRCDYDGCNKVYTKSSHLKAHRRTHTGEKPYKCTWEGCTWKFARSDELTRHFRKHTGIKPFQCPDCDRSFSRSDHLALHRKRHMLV"}
{"Sequence": "GAGGCCGACCGCGCCGAGCCTCCTGGCTCGGCGCGGTCGGCCTCACACTC (5mC at 15 29)", "median fluorescence [a.u.]": 8380}
{"Sequence": "GAGGCCGACCGCTCCCAGCCTCCTGGCTGGGAGCGGTCGGCCTCACACTC", "median fluorescence [a.u.]": 8270}
{"Sequence": "GAGGCCGACCACGCCCAGCCTCCTGGCTGGGCGTGGTCGGCCTCACACTC (5mC at 14)", "median fluorescence [a.u.]": 9160}
{"Sequence": "GAGGCCGACCGCGCCCAGCCTCCTGGCTGGGCGCGGTCGGCCTCACACTC (5mC at 32)", "median fluorescence [a.u.]": 8850}
{"Sequence": "GAGGCCGACCACGCCCAGCCTCCTGGCTGGGCGTGGTCGGCCTCACACTC (5mC at 16)", "median fluorescence [a.u.]": 9800}
{"Sequence": "GAGGCCGAGCGCGCCCAGCCTCCTGGCTGGGCGCGCTCGGCCTCACACTC (5mC at 36)", "median fluorescence [a.u.]": 8480}
{"Sequence": "GAGGCCGACGACGCCCAGCCTCCTGGCTGGGCGTCGTCGGCCTCACACTC (5mC at 9)", "median fluorescence [a.u.]": 8570}
{"Sequence": "GAGGCCTACCACGCCCAGCCTCCTGGCTGGGCGTGGTAGGCCTCACACTC", "median fluorescence [a.u.]": 9310}
{"data": "Mixed results"}
{"Sequence": "MSWGWRLPF", "target": "HLA class I histocompatibility antigen, C alpha chain, allele C*04:01 (Homo sapiens, UniProt P10321)", "test": "peptide-MHC binding", "system": "peptide", "setting": "concentration not given", "endpoint": "binding", "result": "inactive"}
{"note": "Some of these lines once more (block 1):"}
{"Sequence": "AATGGACC", "E-score": 0.0238}
{"Sequence": "CTCTGAAA", "E-score": 0.161}
{"Sequence": "AGATGGTA", "E-score": 0.0985}
